Experimental data gathered from unrelated publications.
Protocols differ between the studies behind these lines. ± marks the error that the study gave.
rep main protease: Replicase polyprotein 1ab, main protease (rep, Severe acute respiratory syndrome coronavirus 2, UniProt P0DTD1)
rep nsp14 N7-methyltransferase: Replicase polyprotein 1ab, nsp14 N7-methyltransferase (rep, Severe acute respiratory syndrome coronavirus 2, UniProt P0DTD1)

| SMILES | tested on | test | test system | conditions | how to read | measurement | value |
| --- | --- | --- | --- | --- | --- | --- | --- |
| O=C(NC[C@H](NC(=O)c1cncc2ccccc12)c1ccc2ccccc2c1)c1cn[nH]n1 | rep main protease | enzyme activity, inhibitor |  | 5 µM, run 1 |  | inhibition | 13.6% |
| C=CS(=O)(=O)N(c1ccc(C(C)(C)C)cc1)C(C(=O)NC1CCCCC1)c1cccnc1 (centres unmarked) | rep main protease | enzyme activity, inhibitor |  |  |  | kinact | 0.0061 s⁻¹ |
| CC(=O)c1c(O)c(C)c(O)c(Cc2c(O)c3c(c(C(=O)/C=C/c4ccccc4)c2O)OC(C)(C)C=C3)c1O | rep nsp14 N7-methyltransferase | N7-methyltransferase activity, inhibitor, Py-FLINT |  |  |  | Hill slope | 1.11 ± 0.15 |
| O=C(CC1CC(=O)NC(=O)C1)NC[C@@H]1CC2(CCC2)CN1C(=O)[C@@H]1CCCC12CCOCC2 | rep main protease | enzyme activity, inhibitor |  | 5 µM, mean of runs |  | inhibition | 15.6% |
| CCOC(=O)COc1ccc(/C=C2\SC(=S)NC2=O)cc1OC | rep main protease | viral replication, Gluc reporter | SARS-CoV-2 | 20 µM |  | inhibition | 0.0578% |
| COc1ccc(S(=O)(=O)NCc2cn(C[C@H]3O[C@@H](n4cnc5c(N)ncnc54)[C@H](O)[C@@H]3O)nn2)cc1 | rep nsp14 N7-methyltransferase | N7-methyltransferase activity, inhibitor, radioactive filter binding |  | 50 µM, 0.5 h, 30 °C, added: GpppAC4 RNA, SAM |  | remaining binding | > 50% |
| Cc1cccc(N2CC(C(=O)O)CC2=O)c1 (centres unmarked) | Replicase polyprotein 1ab, nsp13 helicase (rep, Severe acute respiratory syndrome coronavirus 2, UniProt P0DTD1) | binding, affinity selection mass spectrometry |  |  | relative to: other proteins in batch | fold enrichment | 0.887 |
| CC[C@H](C)[C@H](NC(=O)[C@H](CC(C)C)NC(=O)[C@H](Cc1c[nH]c2ccccc12)NC(=O)[C@H](CCC(N)=O)NC(=O)[C@@H](NC(=O)[C@H](Cc1ccccc1)NC(=O)[C@H](C)NC(=O)[C@H](CCCCNC(=O)COCCOCCNC(=O)COCCOCCNC(=O)CC[C@H](NC(=O)CCCCCCCCCCCCCCCCCCC(=O)O)C(=O)O)NC(=O)[C@H](CCC(N)=O)NC(=O)[C@H](C)NC(=O)[C@@H](NC(=O)[C@H](CCCCN)NC(=O)[C@H](CC(=O)O)NC(=O)[C@H](CC(C)C)NC(=O)C(C)(C)NC(=O)[C@@H](NC(=O)[C@H](CO)NC(=O)[C@H](Cc1ccc(O)cc1)NC(=O)[C@H](CC(=O)O)NC(=O)[C@H](CO)NC(=O)[C@@H](NC(=O)[C@H](Cc1ccccc1)NC(=O)[C@@H](NC(=O)CNC(=O)[C@H](CCC(=O)O)NC(=O)C(C)(C)NC(=O)[C@@H](N)Cc1ccc(O)cc1)[C@@H](C)O)[C@@H](C)O)[C@@H](C)CC)[C@@H](C)CC)C(C)C)C(=O)N[C@@H](C)C(=O)NCC(=O)NCC(=O)N1CCC[C@H]1C(=O)N[C@@H](CO)C(=O)N[C@@H](CO)C(=O)NCC(=O)N[C@@H](C)C(=O)N1CCC[C@H]1C(=O)N1CCC[C@H]1C(=O)N1CCC[C@H]1C(=O)N[C@@H](CO)C(N)=O |  |  | healthy subjects, single ascending dose | 5.0 mg, day 29 |  | serum ALT | 23 ± 10.1 U/L |
| CCC[C@H](N[C@H]1CCc2cc(F)cc(F)c2C1)C(=O)Nc1cn(C(C)(C)CNCC(C)(C)C)cn1 | rep main protease | reporter gene (Gaussia luciferase), inhibitor |  | 20 µM |  | inhibition | -1.06% |
| Cn1cnc(Cn2c(=O)[nH]/c(=N\c3cc4cn(C)nc4cc3Cl)n(Cc3cc(F)c(F)cc3F)c2=O)n1 |  |  | human, severe renal impairment, plasma | oral, 375 mg single dose |  | AUC(0-inf) | 1600 µg·h/mL |
| N#C[C@@]1(n2ccc(N)nc2=O)O[C@H](COP(=O)(O)OP(=O)(O)OP(=O)(O)O)[C@@H](O)[C@H]1O | Replicase polyprotein 1ab, nsp12 with nsp7/nsp8 (rep, Severe acute respiratory syndrome coronavirus 2, UniProt P0DTD1) |  |  | 45 min |  | CNC:C mismatch incorporation | < 1% |
| NC(=O)c1ccc(/C=C/C(=O)N2C[C@H]3CCC[C@@H](C2)N3C(=O)CCn2c(O)ccc2O)cc1 | rep main protease | enzyme activity, inhibitor |  | 5 µM, mean of runs |  | inhibition | 14.8% |
| Nc1ncnc2c([C@@H]3N[C@H](CO)[C@@H](O)[C@H]3O)c[nH]c12 | Marburg virus | viral replication, antibody staining | HeLa, Musoke | 6.3 µM, 1 h |  | infected cells | 2.4% |
| Cc1cncc(CC(=O)N2CC3(CC[C@H](CNC(=O)[C@@]4(O)CCc5ccccc5C4)O3)C2)c1 | rep main protease | enzyme activity, inhibitor |  | 5 µM, run 1 |  | inhibition | 13.9% |
| O=C(/C=C/c1ccccc1)c1ccc(O)cc1 | rep main protease | reporter gene (Gaussia luciferase), inhibitor |  | 20 µM |  | inhibition | -2.09% |
| Cc1nn(CC(=O)N2C[C@H]3C[C@@H]2CC[C@H]3NC(=O)C=C2C3CC4CC(C3)CC2C4)c(=O)n1C | rep main protease | enzyme activity, inhibitor |  | 5 µM |  | inhibition | 12.4% |
| C[C@@H]1O[C@@H](O[C@H]2[C@H](O[C@H]3[C@H](O[C@H]4CC[C@@]5(C)[C@@H](CC[C@]6(C)[C@@H]5CC=C5[C@@H]7CC(C)(C)C[C@@H](O)[C@]7(C)CC[C@]56C)[C@@]4(C)CO)O[C@H](C(=O)O)[C@@H](O)[C@@H]3O)O[C@H](CO)[C@H](O)[C@@H]2O)[C@H](O)[C@H](O)[C@H]1O | rep main protease | reporter gene (mKate2), inhibitor |  | 20 µM |  | inhibition | -0.18% |
| CN(C(=O)[C@H](Cc1ccccc1)NC(=O)OCc1ccccc1)N(C#N)CCC(N)=O | rep main protease | inhibitor, biochemical |  |  |  | kinact/Ki | 1150 M⁻¹ s⁻¹ |
| CCOC(=O)N1CSCC1C(=O)O (racemic) | rep main protease | reporter gene (Gaussia luciferase), inhibitor |  | 20 µM |  | inhibition | 0.321% |
| O.O=c1c(O)c(-c2ccc(O)cc2O)oc2cc(O)cc(O)c12 | rep nsp14 N7-methyltransferase | N7-methyltransferase activity, inhibitor, Py-FLINT |  |  |  | Hill slope | 1.86 ± 0.08 |

For quick reference, copied from above:
| SMILES | tested on | test | test system | conditions | how to read | measurement | value |
| --- | --- | --- | --- | --- | --- | --- | --- |
| Cn1cnc(Cn2c(=O)[nH]/c(=N\c3cc4cn(C)nc4cc3Cl)n(Cc3cc(F)c(F)cc3F)c2=O)n1 |  |  | human, severe renal impairment, plasma | oral, 375 mg single dose |  | AUC(0-inf) | 1600 µg·h/mL |
| CCOC(=O)COc1ccc(/C=C2\SC(=S)NC2=O)cc1OC | rep main protease | viral replication, Gluc reporter | SARS-CoV-2 | 20 µM |  | inhibition | 0.0578% |
| Cc1cncc(CC(=O)N2CC3(CC[C@H](CNC(=O)[C@@]4(O)CCc5ccccc5C4)O3)C2)c1 | rep main protease | enzyme activity, inhibitor |  | 5 µM, run 1 |  | inhibition | 13.9% |
